Assay results pooled from the literature.
Each numbered part is a random draw from the data of one study; scales do not carry over between parts.

Study 1 — technique: RNA Bind-n-Seq; form: RNA; sample: in vitro; tested at: 1 µM; notes: whole 134-nt RNA, ends assumed; added: 150 mM KCl; reference: input library; direction: higher = stronger binding
Target: Ras GTPase-activating protein-binding protein 1, C-terminal RGG region (G3BP1, Homo sapiens, UniProt Q13283)
Chain of UniProt Q13283 (whole entry, looked up): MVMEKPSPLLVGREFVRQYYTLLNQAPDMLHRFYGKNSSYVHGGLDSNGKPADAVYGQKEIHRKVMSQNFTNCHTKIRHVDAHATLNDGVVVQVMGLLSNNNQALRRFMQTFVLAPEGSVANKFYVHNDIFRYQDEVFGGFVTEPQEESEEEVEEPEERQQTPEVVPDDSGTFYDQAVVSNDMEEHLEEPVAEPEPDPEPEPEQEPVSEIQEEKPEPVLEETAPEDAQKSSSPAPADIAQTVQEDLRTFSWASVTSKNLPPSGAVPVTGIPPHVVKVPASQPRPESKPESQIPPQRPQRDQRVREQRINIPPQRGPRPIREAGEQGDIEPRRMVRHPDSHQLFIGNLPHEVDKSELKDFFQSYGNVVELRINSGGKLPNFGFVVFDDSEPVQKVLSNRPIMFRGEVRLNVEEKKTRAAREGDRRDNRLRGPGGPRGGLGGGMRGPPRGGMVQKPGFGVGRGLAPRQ
Constant ends, left off below: GGGAGUUCUACAGUCCGACGAUC … UGGAAUUCUCGGGUGUCAAGG
Strand | log2 enrichment
AGUCCUGUGCUACACAUCGUAUGUACCGAAUCGGGGAAAAAGGGGAAAGGGGUGGGGAAAGUAUUAUGUUACGCCGUUCGGAUCUGCACU | 1.98
GAGGAGAUAAUCUCGGAAAAGUUACGGAAACCUGGGAAGUCGGCGAAACCCUACGUUCGGGUGUUUUCGGAAGCAGCCGAAGCGGCCGCC | -1.03
AGUCCUGUGCUACACAUCGUAUGUACCGAAUCGGUUUUUUUGGAAAAAAAGGUUUGGAAAGUAUUAUGUUACGCCGUUCGGAUCUGCACU | -2.57
UCCUGUGCUACACAUCGUAUGUACCGAAUCGGGGAAAGGGGAAAAAAAGGGGAAAGGGGAAAGUAUUAUGUUACGCCGUUCGGAUCUGCA | 2.08
CAAGUCCUGUGCUACACAUCGUAUGUACCGAAUCGGGAAAAAGGGUGGGUUUGGGAAAGUAUUAUGUUACGCCGUUCGGAUCUGCACUUC | 1.9
CCUCAAGUCCUGUGCUACACAUCGUAUGUACCGAAUCGGAGGUUUGGUUUGGAAAGUAUUAUGUUACGCCGUUCGGAUCUGCACUUCCAG | -0.885
ACCAUGCAGGUGGGCAUCUUUGGGAAGUGGGGCAAGGGGGGGUUAGGGAGGGGGGUAACACUUUGGGAACAGGUGGUCCCAGGUCGUUUC | 2.13
UGGGAGGUGGAUUCUGUUUAUUUUUUUAGCUCAUUUCCAGGGGUGGGAAUUUUUUUUUAAUAUGUGUCAUGAAUAAAGUUGUUUUUGAAA | 3.18
GGGGAGGUGGAUUUUGUUUAUUUUUUUAGCUCAUUUCCAGGGGUGGGAAUUUUUUUUUAAUAUGUGUCAUGAAUAAAGUUGUUUUUGAAA | 3.11

Study 2 — technique: universal PBM; form: double-stranded DNA, one strand shown; sample: in vitro; tested at: not given; direction: higher = stronger binding
Target: Sal-like protein 4, full length isoform B (SALL4, Homo sapiens, UniProt Q9UJQ4-2, residues 1-616)
Notes: 8-mer, flanks averaged, mean of replicates
Construct (chain): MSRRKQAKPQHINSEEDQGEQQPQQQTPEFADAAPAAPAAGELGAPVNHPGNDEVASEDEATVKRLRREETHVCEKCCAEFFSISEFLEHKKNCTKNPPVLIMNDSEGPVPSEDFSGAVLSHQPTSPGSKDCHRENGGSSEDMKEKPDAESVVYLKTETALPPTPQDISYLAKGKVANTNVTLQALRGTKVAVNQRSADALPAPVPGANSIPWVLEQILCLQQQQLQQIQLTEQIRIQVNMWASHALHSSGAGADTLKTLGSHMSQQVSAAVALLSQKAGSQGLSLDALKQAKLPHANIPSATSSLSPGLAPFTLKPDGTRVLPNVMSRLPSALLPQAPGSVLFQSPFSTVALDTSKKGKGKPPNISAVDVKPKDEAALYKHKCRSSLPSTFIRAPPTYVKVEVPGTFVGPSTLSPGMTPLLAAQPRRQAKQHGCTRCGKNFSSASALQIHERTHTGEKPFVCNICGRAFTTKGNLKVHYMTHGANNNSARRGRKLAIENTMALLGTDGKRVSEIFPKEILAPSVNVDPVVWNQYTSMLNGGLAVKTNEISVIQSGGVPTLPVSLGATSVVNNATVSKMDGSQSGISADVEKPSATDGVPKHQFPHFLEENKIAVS
Strand | E-score
GAATTGGC | -0.0228
CTTCTGGC | -0.136
CCAGTTCA | -0.0588
GAGTACAC | -0.0862
CTGTCGGC | -0.285
AAAGAAGT | 0.0744
ACGAGCGT | -0.125
AGATTACT | 0.203
CAATCGCC | -0.104
TGCGCTAA | -0.0189
CGAGATTC | -0.143
AGGCCGAC | -0.408
GATGAGAC | 0.0448
AAGACTTA | 0.158
ATCTTCAT | 0.232
CGGCGCTA | -0.251
CATTCAAG | -0.0267
CAGGATGC | -0.28
AATGGACA | 0.206
CTTAAGCC | -0.0781
ATAACGCG | 0.00967
ACCGCTAG | -0.177
GGGAAAAC | -0.0765
CGCCCTAG | -0.288
AGTTGTAG | 0.0275

Study 3 — technique: RNA Bind-n-Seq; form: RNA; sample: in vitro; tested at: 365 nM; reference: no-protein control; direction: higher = stronger binding
Target: RNA binding protein fox-1 homolog 2, RRM domain, GST-SBP tag (RBFOX2, Homo sapiens, UniProt O43251-10, residues 100-194)
Notes: natural RNA segment, single round, ends assumed
Constant ends, left off below: GGGAGUUCUACAGUCCGACGAUC … UGGAAUUCUCGGGUGCCAA
Construct (chain): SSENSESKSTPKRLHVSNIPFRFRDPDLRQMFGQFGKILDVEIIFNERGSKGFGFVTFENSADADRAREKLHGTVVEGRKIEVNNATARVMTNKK
Strand | RBNS enrichment (R)
AGCUGCCCCCAGGGAGCUCUGCUGCCCUUGCUGGCCCUGCCCUUCCCACAGGUGAGCAGGGCUCCUGUCCACCAGCACACUCAGUUCUCUUCCCUGCAGUGUUUUCAUUU | 0.488
GACCUAACAUUGGGGACUUAAAUGCCUUCUUAUCCAAUAUAUCUUCUCAGAUGGGAUGACUGCGGGUCAGUGCACCGAAGAGGCGGGCGCAGGCGCUGUCUGGCUCAGCU | 0.332
CUUAGGGCAAGAGCCAGGUAUAGUCUCCCUUCCCAGAAUUUGUAACUGAGAAGAUCUUUUCUUUUUCCUUUUUUUGGUAACAAGACUUAGAAGGAGGGCCCAGGCACUUU | 0.324
UUCGGUUUUACAAAGGAAGAACAGGUUUCCUAAGGCCGAGGAAAUCUUGGAGAAUAAAAAAGGACUUGGAAAACAAGUCUUAGUAGUCAUUCAGAGGACUCAAGUACUAG | 0.479
GGCCAUUAACACUGAUAAGUAUGAAUAUACAGAUAUGGCUUAGGUUUCUUCAAGAGGAAACAUAUUCUGUCCGAAGGAAACUGUAGUGCGAGCCCAGAGUGUUCAAAGGC | 0.651
UUAUUAUAAGGGAUUUGUGAUGUCUGUAAAGUGUAACCUAGGAAAGAUAAUUCAACCAUCUAAUCAAAAUGGAUCUGGAUUACUAUGUAAAUUCACAGCAGUAAGAUAAU | 0.353
CCAGUUUGGAUUGAUGAAAGUGAUUUUUCUGCUUUACCUUUUUCCUGUCAGAAAGGUUUUCCUCUGUGCUACCCUUAACUUAGGGAUGAACAGACUAUAACUAGGAAAGG | 0.31
AAUGAUGUUAUAGAAUUAUUUUUGAGCAGGAGCAGAAAGAUUAAAUAUGAUCACUUCAUACUUCUAAAUCAGAAAUAGGAAGAUUAAAACCACAGAACAGUUUGUGAUUU | 0.353

Study 4 — technique: RNA Bind-n-Seq; form: RNA; sample: in vitro; tested at: not given; reference: input RNA pool; direction: higher = stronger binding
Target: RING finger protein unkempt homolog, zinc fingers 1-6, GST-SBP tag (UNK, Homo sapiens, UniProt Q9C0B0, residues 30-357)
Chain of UniProt Q9C0B0 (30-357, looked up): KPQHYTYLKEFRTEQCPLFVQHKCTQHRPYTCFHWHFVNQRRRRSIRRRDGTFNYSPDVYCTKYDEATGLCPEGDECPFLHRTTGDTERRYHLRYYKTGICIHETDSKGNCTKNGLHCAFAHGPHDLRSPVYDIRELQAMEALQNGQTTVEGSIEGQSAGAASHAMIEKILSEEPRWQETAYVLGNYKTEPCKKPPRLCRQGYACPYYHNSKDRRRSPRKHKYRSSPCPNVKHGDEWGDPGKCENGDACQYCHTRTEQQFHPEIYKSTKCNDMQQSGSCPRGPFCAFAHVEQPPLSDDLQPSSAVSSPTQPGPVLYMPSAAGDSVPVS
Notes: RNA with constant flanks, human and mouse sites, ends assumed
Constant ends, left off below: GGGAGUUCUACAGUCCGACGAUC … CAACAGAGGAUUGAGCAUCA
Strand | bound/input enrichment [ratio]
AAAUUUAACUAAUUUCCAUUUGUUAAAAAGUAGUGAUUUAUUGAGAAUUAUGCAGUCAUUUUUUAAACCCAAAAGUUAUUUAAAGGUGAAUUUAUACUCAAUAACUUCUGUGUAAUACUG | 2.18
GCUGUAAAUACUCUACUAAGUUUGGAAGAGUCUUCAGAACUUCUUCAUCUGGUUCCUGUGGGACGAGUGAAGCACUUAGUGUUGACCUUUCCAACGGAGCCAUCUGUGUUGCUGUUGGCC | 0.143
GAAGAACCAAGAGCUUUAUACAUACAUUGUUAUGCACACUUUUUGGAUUUAUCAAUAAUUAGGUUUUGUAAAGAAGUAAAAGAACUCCGAAGUGCUCUAAAAACUCUCAGUUCUUUGUUC | 1.86
UUUGAUACAGUCAAAAGUGUUCUCGACAAAGACCGAAAAGAAGAUGAUACAAAUGAAUUUGUUAGUGCUGUGUGCUGGAGGGCACUACCAGAUGGGGAGUCCAAUGUGCUGAUUGCUGCU | 0.58
GACUCCUGUGUCUUGCGUGGAGUCAUGAUUAACAAGGAUGUGACCCAUCCACGUAUGCGGCGCUAUAUCAAGAACCCUCGCAUUGUGCUGCUGGAUUCUUCUCUGGAAUACAAGAAAGGA | 0.153
GAUGCAGUUAAGGAAGAAAAUCUGAAGCUAAAGUCGGAAAAUCAAGUUCUCGGACAAUAUAUAGAAAACCUCAUGUCUGCUUCUAGUGUUUUUCAAACAACUGAUACAAAAAGCAAAAGG | 0.233
UGGAAUUCUAAUCUGAGUGGGCAUCUCCUGAGUGCAUCUGAUGACCAUACUGUCUGCCUGUGGGAUAUAAAUGCAGGACCAAAGGAAGGCAAAAUUGUGGAUGCUAAAGCAAUCUUUACU | 0.111
UAUGGUGGGGUUGGUAAUUCAUCGGUUUCUGGUCAUGGCAUUCUCCCAAGCUAUCAGGAACUAGUAGAAGAUCGUUUCAGGAAACCUCAUGCUUUUGCUGUACCUGGACAGUCAUAUCAG | 0.46

Mixed results
Strand | target | technique | form | reference | measurement | value
GGAGTGCGCACTCC (dsDNA) | KAT6A 1-85 Q25A (Homo sapiens, UniProt Q92794) | ITC | double-stranded DNA, one strand shown | WT | relative binding | 3

Repeated from above (study 1):
Strand | log2 enrichment
GAGGAGAUAAUCUCGGAAAAGUUACGGAAACCUGGGAAGUCGGCGAAACCCUACGUUCGGGUGUUUUCGGAAGCAGCCGAAGCGGCCGCC | -1.03
AGUCCUGUGCUACACAUCGUAUGUACCGAAUCGGGGAAAAAGGGGAAAGGGGUGGGGAAAGUAUUAUGUUACGCCGUUCGGAUCUGCACU | 1.98
UGGGAGGUGGAUUCUGUUUAUUUUUUUAGCUCAUUUCCAGGGGUGGGAAUUUUUUUUUAAUAUGUGUCAUGAAUAAAGUUGUUUUUGAAA | 3.18
AGUCCUGUGCUACACAUCGUAUGUACCGAAUCGGUUUUUUUGGAAAAAAAGGUUUGGAAAGUAUUAUGUUACGCCGUUCGGAUCUGCACU | -2.57
CAAGUCCUGUGCUACACAUCGUAUGUACCGAAUCGGGAAAAAGGGUGGGUUUGGGAAAGUAUUAUGUUACGCCGUUCGGAUCUGCACUUC | 1.9
GGGGAGGUGGAUUUUGUUUAUUUUUUUAGCUCAUUUCCAGGGGUGGGAAUUUUUUUUUAAUAUGUGUCAUGAAUAAAGUUGUUUUUGAAA | 3.11
